Measurements from different studies.
Numbered parts are unrelated; each lists some results of a single study.
Chain of UniProt Q8NG66 (whole entry, looked up): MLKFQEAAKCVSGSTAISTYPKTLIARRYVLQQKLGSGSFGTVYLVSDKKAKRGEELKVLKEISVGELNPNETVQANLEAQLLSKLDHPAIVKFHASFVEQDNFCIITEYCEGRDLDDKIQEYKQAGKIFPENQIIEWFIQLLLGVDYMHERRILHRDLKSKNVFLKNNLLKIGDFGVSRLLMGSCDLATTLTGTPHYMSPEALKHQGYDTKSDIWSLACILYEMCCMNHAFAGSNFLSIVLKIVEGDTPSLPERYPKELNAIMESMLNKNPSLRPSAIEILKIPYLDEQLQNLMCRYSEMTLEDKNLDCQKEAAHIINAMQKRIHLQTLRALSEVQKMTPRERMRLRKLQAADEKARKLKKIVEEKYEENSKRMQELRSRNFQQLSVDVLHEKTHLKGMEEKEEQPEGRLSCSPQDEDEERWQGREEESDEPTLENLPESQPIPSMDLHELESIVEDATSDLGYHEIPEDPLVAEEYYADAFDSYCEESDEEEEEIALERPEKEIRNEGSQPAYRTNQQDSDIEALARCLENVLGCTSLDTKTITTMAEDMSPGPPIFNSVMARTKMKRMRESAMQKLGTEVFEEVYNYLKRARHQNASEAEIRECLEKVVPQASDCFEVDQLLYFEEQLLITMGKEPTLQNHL
Chain of UniProt P35968 (whole entry, looked up): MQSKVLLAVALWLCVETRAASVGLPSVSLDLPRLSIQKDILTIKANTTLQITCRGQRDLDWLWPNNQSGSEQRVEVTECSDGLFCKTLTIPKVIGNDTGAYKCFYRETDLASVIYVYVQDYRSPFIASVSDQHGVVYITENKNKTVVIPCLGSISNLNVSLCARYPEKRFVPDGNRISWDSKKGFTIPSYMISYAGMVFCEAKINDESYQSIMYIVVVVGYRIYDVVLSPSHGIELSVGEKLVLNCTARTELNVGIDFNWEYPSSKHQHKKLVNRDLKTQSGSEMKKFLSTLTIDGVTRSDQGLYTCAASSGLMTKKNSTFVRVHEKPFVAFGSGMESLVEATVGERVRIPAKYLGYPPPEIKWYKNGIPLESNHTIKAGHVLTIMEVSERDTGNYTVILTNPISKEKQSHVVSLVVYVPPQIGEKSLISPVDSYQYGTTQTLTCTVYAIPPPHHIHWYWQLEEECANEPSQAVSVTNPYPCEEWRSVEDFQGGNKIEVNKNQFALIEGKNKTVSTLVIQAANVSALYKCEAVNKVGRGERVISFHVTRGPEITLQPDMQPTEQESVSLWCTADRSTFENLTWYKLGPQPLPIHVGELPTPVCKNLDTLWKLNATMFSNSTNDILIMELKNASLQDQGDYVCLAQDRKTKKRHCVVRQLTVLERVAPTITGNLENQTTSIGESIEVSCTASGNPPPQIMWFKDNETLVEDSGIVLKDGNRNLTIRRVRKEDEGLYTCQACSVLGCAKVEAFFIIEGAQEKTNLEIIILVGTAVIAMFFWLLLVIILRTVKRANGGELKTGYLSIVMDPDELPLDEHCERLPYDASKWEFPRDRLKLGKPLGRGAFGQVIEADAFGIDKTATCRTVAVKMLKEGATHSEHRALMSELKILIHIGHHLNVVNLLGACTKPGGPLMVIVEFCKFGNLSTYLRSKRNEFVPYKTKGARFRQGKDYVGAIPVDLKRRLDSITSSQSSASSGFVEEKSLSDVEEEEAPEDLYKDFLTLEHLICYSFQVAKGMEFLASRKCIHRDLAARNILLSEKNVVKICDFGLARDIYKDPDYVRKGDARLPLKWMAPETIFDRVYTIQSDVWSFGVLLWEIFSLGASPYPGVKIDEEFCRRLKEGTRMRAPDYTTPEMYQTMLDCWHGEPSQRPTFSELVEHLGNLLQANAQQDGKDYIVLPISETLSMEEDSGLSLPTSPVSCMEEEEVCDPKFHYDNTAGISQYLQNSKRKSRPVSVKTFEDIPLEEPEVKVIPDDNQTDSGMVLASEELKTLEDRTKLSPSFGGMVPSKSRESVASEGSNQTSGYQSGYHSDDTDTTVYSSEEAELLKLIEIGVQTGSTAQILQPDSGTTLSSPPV
Chain of UniProt P51955 (whole entry, looked up): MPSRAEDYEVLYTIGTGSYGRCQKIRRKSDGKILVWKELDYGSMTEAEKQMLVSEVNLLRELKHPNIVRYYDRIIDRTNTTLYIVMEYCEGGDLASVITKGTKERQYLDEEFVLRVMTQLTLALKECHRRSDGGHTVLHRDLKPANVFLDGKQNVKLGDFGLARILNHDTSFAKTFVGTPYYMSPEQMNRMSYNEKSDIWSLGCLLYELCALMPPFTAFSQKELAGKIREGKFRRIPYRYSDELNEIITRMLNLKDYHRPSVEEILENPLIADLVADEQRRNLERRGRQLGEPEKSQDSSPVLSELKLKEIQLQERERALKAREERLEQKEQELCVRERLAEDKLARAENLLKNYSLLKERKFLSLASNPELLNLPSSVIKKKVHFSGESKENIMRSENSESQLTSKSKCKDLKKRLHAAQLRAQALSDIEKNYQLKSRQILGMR
Chain of UniProt Q13233 (whole entry, looked up): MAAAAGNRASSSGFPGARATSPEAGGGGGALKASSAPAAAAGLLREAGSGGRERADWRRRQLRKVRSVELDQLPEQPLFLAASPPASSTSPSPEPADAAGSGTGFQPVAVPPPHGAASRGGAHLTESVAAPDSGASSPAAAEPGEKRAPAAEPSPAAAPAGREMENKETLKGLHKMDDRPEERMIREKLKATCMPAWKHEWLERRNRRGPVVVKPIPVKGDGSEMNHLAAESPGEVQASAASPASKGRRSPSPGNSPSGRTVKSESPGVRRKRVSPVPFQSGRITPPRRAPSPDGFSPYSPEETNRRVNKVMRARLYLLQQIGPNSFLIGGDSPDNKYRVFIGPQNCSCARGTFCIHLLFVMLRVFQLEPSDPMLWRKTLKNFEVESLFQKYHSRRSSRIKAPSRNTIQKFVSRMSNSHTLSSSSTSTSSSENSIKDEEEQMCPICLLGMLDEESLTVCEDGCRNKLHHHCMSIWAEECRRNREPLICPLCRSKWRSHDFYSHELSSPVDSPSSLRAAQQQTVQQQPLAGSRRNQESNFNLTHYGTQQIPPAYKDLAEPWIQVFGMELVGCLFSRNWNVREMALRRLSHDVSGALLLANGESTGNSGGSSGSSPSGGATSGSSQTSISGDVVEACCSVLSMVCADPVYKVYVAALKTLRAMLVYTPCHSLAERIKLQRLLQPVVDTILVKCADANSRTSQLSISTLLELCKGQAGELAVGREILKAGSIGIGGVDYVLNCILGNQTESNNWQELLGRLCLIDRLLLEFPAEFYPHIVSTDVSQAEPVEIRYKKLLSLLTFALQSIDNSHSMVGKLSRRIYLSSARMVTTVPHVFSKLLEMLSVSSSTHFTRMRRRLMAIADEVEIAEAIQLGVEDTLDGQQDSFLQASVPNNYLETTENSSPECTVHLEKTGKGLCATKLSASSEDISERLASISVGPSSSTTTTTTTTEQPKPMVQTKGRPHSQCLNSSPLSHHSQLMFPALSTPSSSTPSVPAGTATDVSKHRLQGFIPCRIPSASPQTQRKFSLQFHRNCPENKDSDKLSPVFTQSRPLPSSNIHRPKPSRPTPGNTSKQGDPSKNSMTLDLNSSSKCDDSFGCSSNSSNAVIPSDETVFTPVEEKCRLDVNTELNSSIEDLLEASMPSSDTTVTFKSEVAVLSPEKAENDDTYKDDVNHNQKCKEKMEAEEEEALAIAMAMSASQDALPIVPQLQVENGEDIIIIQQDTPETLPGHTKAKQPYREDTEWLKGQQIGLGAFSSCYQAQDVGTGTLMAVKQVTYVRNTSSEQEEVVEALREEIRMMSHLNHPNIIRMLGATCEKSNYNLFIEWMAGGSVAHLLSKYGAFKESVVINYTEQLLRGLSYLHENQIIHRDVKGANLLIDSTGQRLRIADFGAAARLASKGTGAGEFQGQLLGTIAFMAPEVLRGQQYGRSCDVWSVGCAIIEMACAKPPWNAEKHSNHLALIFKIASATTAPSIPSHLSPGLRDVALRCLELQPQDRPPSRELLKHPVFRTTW
Chain of UniProt Q9HBH9 (whole entry, looked up): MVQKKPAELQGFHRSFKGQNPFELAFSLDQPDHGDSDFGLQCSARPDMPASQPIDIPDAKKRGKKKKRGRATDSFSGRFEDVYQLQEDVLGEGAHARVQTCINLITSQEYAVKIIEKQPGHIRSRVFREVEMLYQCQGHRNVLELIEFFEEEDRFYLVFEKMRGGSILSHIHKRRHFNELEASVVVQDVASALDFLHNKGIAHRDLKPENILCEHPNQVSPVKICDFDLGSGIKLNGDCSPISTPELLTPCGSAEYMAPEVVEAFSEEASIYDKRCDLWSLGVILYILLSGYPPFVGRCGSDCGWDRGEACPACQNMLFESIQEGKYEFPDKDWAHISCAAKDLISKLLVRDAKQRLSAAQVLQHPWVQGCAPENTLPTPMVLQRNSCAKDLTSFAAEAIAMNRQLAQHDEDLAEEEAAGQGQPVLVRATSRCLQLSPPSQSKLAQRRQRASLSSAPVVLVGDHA

Series 1 — SMILES: CC(C)CN(C)c1nc(N)c(C(=O)N=C(N)N)nc1Cl; effect on: β-arrestin recruitment; action: agonist; method: PRESTO-Tango; concentration: 10 µM; reference: untreated
target	fold over basal
Opsin-3 (OPN3, Homo sapiens, UniProt Q9H1Y3)	1.67
Delta-type opioid receptor (OPRD1, Homo sapiens, UniProt P41143)	9.87
Metabotropic glutamate receptor 2 (GRM2, Homo sapiens, UniProt Q14416)	0.78 fold
GPR101 (Homo sapiens, UniProt Q96P66)	1.05
Histamine H3 receptor (HRH3, Homo sapiens, UniProt Q9Y5N1)	0.6 fold
Glucose-dependent insulinotropic receptor (GPR119, Homo sapiens, UniProt Q8TDV5)	0.76
Neuropeptide Y receptor type 1 (NPY1R, Homo sapiens, UniProt P25929)	0.89

Series 2 — species: human; sample: microsomes or S9; concentration: 2 µM; time: 0.5 h
SMILES	remaining compound [%]
Cc1onc2c(=O)n(C)nc(C(=O)N3CCN(C)CC3C)c12 (stereo not drawn)	62.9
CCCc1nc2c(c(C)c(C)n2Cc2ccncc2)c(N)c1CC	68.6
CCc1ccc(S(=O)(=O)c2nnn3c2[nH]c(=O)c2sccc23)cc1	1.32
Nc1nc(N2CCN(c3ncccn3)CC2)c2nc[nH]c2n1	> 100
CCS(=O)(=O)Nc1ccc(C(=O)OC(C)C)cc1	83.9
Cc1ccc(S(=O)(=O)N2CCN(c3ncnc4c3nnn4Cc3ccccc3)CC2)cc1	> 100
Cn1c(C(F)(F)F)nn(CCNS(=O)(=O)CCN2C(=O)CCCC2=O)c1=O	> 99

Series 3 — effect on: cell-free assay; method: competition with immobilised ligand; concentration: 0.1 µM
Structure (SMILES): C[C@@H]1CN(c2cc(-c3n[nH]c4ccc(OC5(C)CC5)cc34)ncn2)C[C@H](C)O1
target	remaining binding [%]
Receptor-type tyrosine-protein kinase FLT3 (FLT3, Homo sapiens, UniProt P36888, D835H)	100
MAP/microtubule affinity-regulating kinase 4 (MARK4, Homo sapiens, UniProt Q96L34)	100
Vascular endothelial growth factor receptor 1 (FLT1, Homo sapiens, UniProt P17948)	100
Serine/threonine-protein kinase Nek11 (NEK11, Homo sapiens, UniProt Q8NG66)	100
Testis-specific serine/threonine-protein kinase 3 (TSSK3, Homo sapiens, UniProt Q96PN8)	79
MAP kinase-interacting serine/threonine-protein kinase 2 (MKNK2, Homo sapiens, UniProt Q9HBH9)	74
Phosphatidylinositol 4,5-bisphosphate 3-kinase catalytic subunit alpha isoform (PIK3CA, Homo sapiens, UniProt P42336, E545A)	76
Mitogen-activated protein kinase 13 (MAPK13, Homo sapiens, UniProt O15264)	96
Tyrosine-protein kinase TXK (TXK, Homo sapiens, UniProt P42681)	80
Serine/threonine-protein kinase tousled-like 1 (TLK1, Homo sapiens, UniProt Q9UKI8)	94
Serine/threonine-protein kinase LATS1 (LATS1, Homo sapiens, UniProt O95835)	96
Vascular endothelial growth factor receptor 2 (KDR, Homo sapiens, UniProt P35968)	82
Mitogen-activated protein kinase kinase kinase 1 (MAP3K1, Homo sapiens, UniProt Q13233)	63
Serine/threonine-protein kinase WNK3 (WNK3, Homo sapiens, UniProt Q9BYP7)	73
Mitogen-activated protein kinase 10 (MAPK10, Homo sapiens, UniProt P53779)	77
Serine/threonine-protein kinase SIK3 (SIK3, Homo sapiens, UniProt Q9Y2K2)	74
NT-3 growth factor receptor (NTRK3, Homo sapiens, UniProt Q16288)	86
Mitogen-activated protein kinase kinase kinase kinase 3 (MAP4K3, Homo sapiens, UniProt Q8IVH8)	88
Serine/threonine-protein kinase Chk2 (CHEK2, Homo sapiens, UniProt O96017)	68
cGMP-dependent protein kinase 2 (PRKG2, Homo sapiens, UniProt Q13237)	79
Serine/threonine-protein kinase 33 (STK33, Homo sapiens, UniProt Q9BYT3)	86
Inhibitor of nuclear factor kappa-B kinase subunit alpha (CHUK, Homo sapiens, UniProt O15111)	76
Ribosomal protein S6 kinase alpha-4, N-terminal kinase domain (RPS6KA4, Homo sapiens, UniProt O75676)	100
Serine/threonine-protein kinase WNK2 (WNK2, Homo sapiens, UniProt Q9Y3S1)	84
Serine/threonine-protein kinase Nek2 (NEK2, Homo sapiens, UniProt P51955)	86

Series 4 — effect on: enzyme activity; action: inhibitor; concentration: 10 µM
Target: Calcium/calmodulin-dependent protein kinase type II subunit alpha (CAMK2A, Homo sapiens, UniProt Q9UQM7)
Chain of UniProt Q9UQM7 (whole entry, looked up): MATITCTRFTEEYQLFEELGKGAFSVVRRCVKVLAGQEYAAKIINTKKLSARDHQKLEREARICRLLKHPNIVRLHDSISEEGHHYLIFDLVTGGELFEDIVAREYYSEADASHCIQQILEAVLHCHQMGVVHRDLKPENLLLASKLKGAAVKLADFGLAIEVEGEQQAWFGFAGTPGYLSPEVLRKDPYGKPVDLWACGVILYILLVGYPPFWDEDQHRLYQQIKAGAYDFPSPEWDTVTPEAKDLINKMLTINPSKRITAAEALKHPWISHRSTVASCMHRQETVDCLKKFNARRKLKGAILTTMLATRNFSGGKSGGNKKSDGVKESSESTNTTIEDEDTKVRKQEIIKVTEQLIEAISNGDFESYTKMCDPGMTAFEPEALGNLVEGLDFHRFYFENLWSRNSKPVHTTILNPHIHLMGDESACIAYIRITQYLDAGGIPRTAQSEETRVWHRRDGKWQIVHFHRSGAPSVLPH
SMILES	inhibition
CC(C)CC(=O)O[C@H](CC(=O)[O-])C[N+](C)(C)C	-19%
NC[C@@H]1O[C@H](O[C@H]2[C@@H](O)[C@H](O[C@@H]3[C@@H](O)[C@H](N)C[C@H](N)[C@H]3O[C@H]3O[C@H](CO)[C@@H](O)[C@H](O)[C@H]3N)O[C@@H]2CO)[C@H](N)[C@@H](O)[C@@H]1O	8%
CC(C)=CCC[C@@](C)(O)[C@H]1CC[C@]2(C)[C@@H]1[C@H](O)C[C@@H]1[C@@]3(C)CC[C@H](O)C(C)(C)[C@@H]3[C@@H](O[C@@H]3O[C@H](CO)[C@@H](O)[C@H](O)[C@H]3O[C@@H]3O[C@@H](C)[C@H](O)[C@@H](O)[C@H]3O)C[C@]12C	3%
C/C1=C\CC[C@]23O[C@H]2[C@@H](OC3=O)c2c(C)coc2C1	-23%
CC(C)=CCc1cc(C(=O)/C=C/c2ccc(O)cc2)c(O)cc1O	11%
CCCCCCCCCCC(=O)OC	14%

Series 5 — cell line: mouse MPNST tumor cells; method: high-content immunofluorescence imaging; refers to: nuclear SOX9; concentration: 10 µM; time: 12 h; setting: mean of 2 replicates; reference: DMSO control; direction: higher = more nuclear SOX9
SMILES	nuclear SOX9 intensity
Cc1cc2sc(NC(=O)Cc3ccccc3)nc2cc1Cl	108 % of DMSO
CCCCC[C@H](O)/C=C/[C@H]1[C@H](O)CC(=O)[C@@H]1CCCCCCC(=O)O	97 % of DMSO
Cc1ccc(C=C2CNCC(=Cc3ccc(C)cc3)C2=O)cc1	104 % of DMSO
Nc1ccc(S(=O)(=O)Nc2ccnn2-c2ccccc2)cc1	97.8 % of DMSO
Cc1ccc(S(=O)(=O)N[C@@H](CCN)C(=O)N[C@@H](Cc2ccccc2)C(N)=O)c2ccccc12	101 % of DMSO
Nc1nc(N)c2nc(-c3cccc(Cl)c3)c(N)nc2n1	106 % of DMSO

A few entries again (series 4):
SMILES	inhibition
CC(C)CC(=O)O[C@H](CC(=O)[O-])C[N+](C)(C)C	-19%
NC[C@@H]1O[C@H](O[C@H]2[C@@H](O)[C@H](O[C@@H]3[C@@H](O)[C@H](N)C[C@H](N)[C@H]3O[C@H]3O[C@H](CO)[C@@H](O)[C@H](O)[C@H]3N)O[C@@H]2CO)[C@H](N)[C@@H](O)[C@@H]1O	8%
CC(C)=CCC[C@@](C)(O)[C@H]1CC[C@]2(C)[C@@H]1[C@H](O)C[C@@H]1[C@@]3(C)CC[C@H](O)C(C)(C)[C@@H]3[C@@H](O[C@@H]3O[C@H](CO)[C@@H](O)[C@H](O)[C@H]3O[C@@H]3O[C@@H](C)[C@H](O)[C@@H](O)[C@H]3O)C[C@]12C	3%
C/C1=C\CC[C@]23O[C@H]2[C@@H](OC3=O)c2c(C)coc2C1	-23%
